{"data": "Results collected from several papers", "organism": "Pseudomonas aeruginosa"}
{"Structure (SMILES)": "CC[C@H](C)[C@H](NC(=O)[C@H](CC(C)C)NC(=O)[C@H](CCCNC(=N)N)NC(=O)[C@H](CCCNC(=N)N)NC(=O)[C@H](CCCNC(=N)N)NC(=O)[C@H](CCCNC(=N)N)NC(=O)[C@H](CC(C)C)NC(=O)[C@@H](NC(=O)[C@@H](NC(=O)[C@@H](NC(=O)[C@H](CCCNC(=N)N)NC(=O)[C@H](CCCNC(=N)N)NC(=O)[C@H](CCCNC(=N)N)NC(=O)[C@@H](N)CCCNC(=N)N)C(C)C)[C@@H](C)CC)[C@@H](C)CC)C(=O)N[C@@H](CO)C(=O)N[C@@H](Cc1ccccc1)C(=O)N[C@@H](CO)C(=O)N[C@@H](C)C(=O)N[C@@H](Cc1ccc(O)cc1)C(N)=O", "assay": "broth microdilution", "test system": "ATCC 27853", "setting": "highest value reported", "MIC": "8 µM"}
{"Structure (SMILES)": "CC[C@H](C)[C@H](NC(=O)CNC(=O)[C@H](CC(=O)O)NC(=O)[C@H](CCCNC(=N)N)NC(=O)[C@@H](NC(=O)[C@H](CC(N)=O)NC(=O)[C@H](CCCNC(=N)N)NC(=O)CNC(=O)[C@@H](NC(=O)[C@H](CCCCN)NC(=O)[C@H](CCCNC(=N)N)NC(=O)[C@@H](NC(=O)[C@H](CCCCN)NC(=O)[C@H](CCCCN)NC(=O)[C@H](Cc1ccccc1)NC(=O)[C@@H](NC(=O)[C@H](CCCCN)NC(=O)[C@H](Cc1c[nH]c2ccccc12)NC(=O)[C@@H](N)CCCNC(=N)N)[C@@H](C)CC)[C@@H](C)CC)C(C)C)C(C)C)C(=O)N[C@H](C(=O)N[C@@H](CCCCN)C(=O)N[C@@H](C)C(=O)NCC(=O)N1CCC[C@H]1C(=O)N[C@@H](C)C(=O)N[C@H](C(=O)N[C@@H](C)C(=O)N[C@H](C(=O)N[C@H](C(=O)NCC(=O)N[C@@H](CCC(N)=O)C(=O)N[C@@H](C)C(=O)N[C@@H](C)C(=O)N[C@H](C(=O)N[C@H](C(=O)N[C@H](C(=O)N[C@@H](CCCCN)C(N)=O)C(C)C)C(C)C)[C@@H](C)O)C(C)C)C(C)C)C(C)C)[C@@H](C)CC", "test system": "KCCM 11328, Mueller-Hinton broth", "setting": "16 h, 37 °C", "scale": "growth inhibition over 99%", "MIC": "2 µM"}
{"Structure (SMILES)": "CC1(C)SC2C(NC(=O)C(NC(=O)C3=C(O)CN(c4ccccc4)C3=O)c3ccccc3)C(=O)N2C1C(=O)O (centres unmarked)", "assay": "broth microdilution", "test system": "TonB-dependent receptor mutant", "setting": "PA two-allele library", "MIC": "50 µg/mL"}
{"Structure (SMILES)": "CC[C@H](C)[C@H](NC(=O)[C@H](CCCCN)NC(=O)[C@H](Cc1c[nH]c2ccccc12)NC(=O)[C@H](Cc1c[nH]c2ccccc12)NC(=O)[C@H](CCCCN)NC(=O)[C@H](CCCCN)NC(=O)[C@H](CCCCN)NC(=O)[C@H](Cc1c[nH]c2ccccc12)NC(=O)[C@H](CCCCN)NC(=O)[C@H](CCCCN)NC(=O)[C@H](Cc1c[nH]c2ccccc12)NC(=O)[C@H](CCCCN)NC(=O)[C@H](CCCCN)NC(=O)[C@@H](NC(=O)[C@@H](NC(=O)[C@H](CCCCN)NC(=O)[C@@H](N)CCCNC(=N)N)[C@@H](C)CC)[C@@H](C)CC)C(=O)N[C@@H](Cc1c[nH]c2ccccc12)C(=O)N[C@@H](Cc1c[nH]c2ccccc12)C(=O)N[C@@H](CCCCN)C(=O)NCCOCCOCC(N)=O", "assay": "broth microdilution", "test system": "10145", "MIC": "1.9 µg/mL"}
{"Structure (SMILES)": "CC[C@H](C)[C@H](NC(=O)[C@H](CC(C)C)NC(=O)[C@H](CCCNC(=N)N)NC(=O)[C@@H](N)CCCNC(=N)N)C(=O)N[C@@H](CC(C)C)C(=O)N[C@H](C(=O)N[C@@H](CCCCN)C(=O)N[C@H](C(=O)NCC(=O)N1CCC[C@H]1C(=O)N[C@H](C(=O)N[C@H](C(=O)N[C@@H](Cc1ccc(O)cc1)C(=O)N[C@@H](CCCCN)C(=O)N[C@@H](Cc1ccc(O)cc1)C(=O)N[C@@H](Cc1ccccc1)C(=O)N[C@@H](CCCCN)C(=O)N[C@@H](CCCCN)C(=O)N[C@@H](CCC(N)=O)C(=O)N[C@@H](CC(C)C)C(=O)N[C@@H](CC(C)C)C(=O)N[C@@H](CCCCN)C(=O)N[C@@H](CC(C)C)C(N)=O)[C@@H](C)CC)[C@@H](C)CC)[C@@H](C)O)[C@@H](C)O", "test system": "KCTC 1637, Mueller-Hinton broth", "setting": "24 h", "MIC": "8 µM"}
{"Structure (SMILES)": "Cc1cc(Cl)cc2sc(N(CCCn3ccnc3)Cc3ccccc3)nc12", "test system": "PAO1-Δ6", "MIC": "> 100 µM"}
{"Structure (SMILES)": "CC(C)C1NC(=O)C(C(=O)NC(C(=O)NC2C(=O)N3C2SC(C)(C)C3C(=O)O)c2ccccc2)=C1O (centres unmarked)", "test system": "fpvA mutant", "MIC": "100 µg/mL"}
{"Structure (SMILES)": "CC[C@H](C)[C@H](NC(=O)[C@H](CC(C)C)NC(=O)[C@H](CCCCN)NC(=O)[C@@H](NC(=O)[C@H](C)NC(=O)[C@H](CCC(=O)O)NC(=O)[C@H](Cc1c[nH]cn1)NC(=O)[C@@H](NC(=O)[C@H](CCCCN)NC(=O)[C@H](CCC(N)=O)NC(=O)[C@H](Cc1ccccc1)NC(=O)[C@@H](NC(=O)[C@H](CCCCN)NC(=O)[C@H](CCCCN)NC(=O)[C@H](CC(C)C)NC(=O)[C@H](C)N)C(C)C)[C@@H](C)CC)[C@@H](C)CC)C(N)=O", "assay": "broth microdilution", "test system": "4891 resistant", "setting": "18 h, 37 °C", "MIC": "8 µM"}
{"Structure (SMILES)": "CC[C@H](C)[C@H](N)C(=O)N[C@@H](CC(C)C)C(=O)NCC(=O)N[C@H](CCCNC(=N)N)C(=O)N[C@H](C(=O)N[C@H](C(=O)N[C@@H](CCCCN)C(=O)NCC(=O)N[C@H](C(=O)N[C@@H](CCCCN)C(=O)N[C@@H](CC(=O)O)C(=O)N[C@H](C(=O)N[C@@H](CC(C)C)C(N)=O)[C@@H](C)CC)[C@@H](C)CC)C(C)C)[C@@H](C)CC", "assay": "broth microdilution", "test system": "ATCC BAA-427, Mueller-Hinton broth", "setting": "16 h, 37 °C", "MIC": "100 µM"}
{"Structure (SMILES)": "CC1(C)SC2C(NC(=O)C(NC(=O)C3=C(O)C(Cc4ccccc4)NC3=O)c3ccccc3)C(=O)N2C1C(=O)O (centres unmarked)", "test system": "pqsE mutant", "MIC": "12.5 µg/mL"}
{"Structure (SMILES)": "N=C(N)NCCC[C@H](NC(=O)[C@H](Cc1c[nH]c2ccccc12)NC(=O)[C@@H](N)CCCNC(=N)N)C(=O)N[C@@H](Cc1c[nH]c2ccccc12)C(=O)N[C@@H](Cc1ccccc1)C(=O)N[C@@H](CCC(N)=O)C(=O)N[C@@H](Cc1ccccc1)C(=O)N[C@@H](CCC(N)=O)C(=O)N[C@@H](Cc1ccccc1)C(=O)N[C@@H](CCCCN)C(N)=O", "assay": "broth microdilution, optical density", "MIC": "280 µM"}
{"Structure (SMILES)": "CC(C)(C)OCC1NC(=O)C(C(=O)NC(C(=O)NC2C(=O)N3C2SC(C)(C)C3C(=O)O)c2ccccc2)=C1O (centres unmarked)", "test system": "fpvB mutant", "MIC": "25 µg/mL"}
{"Structure (SMILES)": "C[C@H]1COc2c(N3CCN(C)CC3)c(F)cc3c(=O)c(C(=O)O)cn1c23", "test system": "1188712, multidrug-resistant", "MIC": "> 8 µg/mL"}
{"Structure (SMILES)": "CC[C@H](C)[C@H](NC(=O)CNC(=O)[C@H](CC(=O)O)NC(=O)[C@H](CCC(=O)O)NC(=O)[C@@H](NC(=O)[C@H](CC(N)=O)NC(=O)[C@H](CCCNC(=N)N)NC(=O)CNC(=O)[C@@H](NC(=O)[C@H](CCCCN)NC(=O)[C@H](CCC(=O)O)NC(=O)[C@@H](NC(=O)[C@H](CCCCN)NC(=O)[C@H](CCCCN)NC(=O)[C@H](Cc1ccccc1)NC(=O)[C@@H](NC(=O)[C@H](CCCCN)NC(=O)[C@H](Cc1c[nH]c2ccccc12)NC(=O)[C@@H](N)CCCNC(=N)N)[C@@H](C)CC)[C@@H](C)CC)C(C)C)C(C)C)C(=O)N[C@H](C(=O)N[C@@H](CCCCN)C(=O)N[C@@H](C)C(=O)NCC(=O)N1CCC[C@H]1C(=O)N[C@@H](C)C(=O)N[C@H](C(=O)N[C@@H](C)C(=O)N[C@H](C(=O)N[C@H](C(=O)NCC(=O)N[C@@H](CCC(N)=O)C(=O)N[C@@H](C)C(=O)N[C@@H](C)C(=O)N[C@H](C(=O)N[C@H](C(=O)N[C@H](C(=O)N[C@@H](CCCCN)C(N)=O)C(C)C)C(C)C)[C@@H](C)O)C(C)C)C(C)C)C(C)C)[C@@H](C)CC", "test system": "KCCM 11328, Mueller-Hinton broth", "setting": "16 h, 37 °C", "scale": "growth inhibition over 99%", "MIC": "32 µM"}
{"note": "For quick reference, copied from above:"}
{"Structure (SMILES)": "CC[C@H](C)[C@H](NC(=O)[C@H](CCCCN)NC(=O)[C@H](Cc1c[nH]c2ccccc12)NC(=O)[C@H](Cc1c[nH]c2ccccc12)NC(=O)[C@H](CCCCN)NC(=O)[C@H](CCCCN)NC(=O)[C@H](CCCCN)NC(=O)[C@H](Cc1c[nH]c2ccccc12)NC(=O)[C@H](CCCCN)NC(=O)[C@H](CCCCN)NC(=O)[C@H](Cc1c[nH]c2ccccc12)NC(=O)[C@H](CCCCN)NC(=O)[C@H](CCCCN)NC(=O)[C@@H](NC(=O)[C@@H](NC(=O)[C@H](CCCCN)NC(=O)[C@@H](N)CCCNC(=N)N)[C@@H](C)CC)[C@@H](C)CC)C(=O)N[C@@H](Cc1c[nH]c2ccccc12)C(=O)N[C@@H](Cc1c[nH]c2ccccc12)C(=O)N[C@@H](CCCCN)C(=O)NCCOCCOCC(N)=O", "assay": "broth microdilution", "test system": "10145", "MIC": "1.9 µg/mL"}
{"Structure (SMILES)": "CC[C@H](C)[C@H](NC(=O)[C@H](CC(C)C)NC(=O)[C@H](CCCNC(=N)N)NC(=O)[C@@H](N)CCCNC(=N)N)C(=O)N[C@@H](CC(C)C)C(=O)N[C@H](C(=O)N[C@@H](CCCCN)C(=O)N[C@H](C(=O)NCC(=O)N1CCC[C@H]1C(=O)N[C@H](C(=O)N[C@H](C(=O)N[C@@H](Cc1ccc(O)cc1)C(=O)N[C@@H](CCCCN)C(=O)N[C@@H](Cc1ccc(O)cc1)C(=O)N[C@@H](Cc1ccccc1)C(=O)N[C@@H](CCCCN)C(=O)N[C@@H](CCCCN)C(=O)N[C@@H](CCC(N)=O)C(=O)N[C@@H](CC(C)C)C(=O)N[C@@H](CC(C)C)C(=O)N[C@@H](CCCCN)C(=O)N[C@@H](CC(C)C)C(N)=O)[C@@H](C)CC)[C@@H](C)CC)[C@@H](C)O)[C@@H](C)O", "test system": "KCTC 1637, Mueller-Hinton broth", "setting": "24 h", "MIC": "8 µM"}
